Assay results pooled from the literature.
Protocols differ between the studies behind these lines. Several values in a cell are separate wells, animals, samples, runs or records. ± gives the spread as reported.
Sequence of UniProt P51575 (whole entry, unmodified, looked up): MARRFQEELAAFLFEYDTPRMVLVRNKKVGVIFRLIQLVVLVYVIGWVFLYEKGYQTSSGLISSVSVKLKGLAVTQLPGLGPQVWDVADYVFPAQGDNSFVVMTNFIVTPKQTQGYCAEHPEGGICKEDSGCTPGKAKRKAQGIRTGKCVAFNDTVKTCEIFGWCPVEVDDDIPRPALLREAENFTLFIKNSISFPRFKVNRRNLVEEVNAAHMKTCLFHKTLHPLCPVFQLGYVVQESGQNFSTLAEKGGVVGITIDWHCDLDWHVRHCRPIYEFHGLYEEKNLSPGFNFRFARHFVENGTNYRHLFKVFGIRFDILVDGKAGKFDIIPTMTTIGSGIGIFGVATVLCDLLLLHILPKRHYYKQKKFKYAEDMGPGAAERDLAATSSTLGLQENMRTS
Sequence of UniProt P02769 (whole entry, unmodified, looked up): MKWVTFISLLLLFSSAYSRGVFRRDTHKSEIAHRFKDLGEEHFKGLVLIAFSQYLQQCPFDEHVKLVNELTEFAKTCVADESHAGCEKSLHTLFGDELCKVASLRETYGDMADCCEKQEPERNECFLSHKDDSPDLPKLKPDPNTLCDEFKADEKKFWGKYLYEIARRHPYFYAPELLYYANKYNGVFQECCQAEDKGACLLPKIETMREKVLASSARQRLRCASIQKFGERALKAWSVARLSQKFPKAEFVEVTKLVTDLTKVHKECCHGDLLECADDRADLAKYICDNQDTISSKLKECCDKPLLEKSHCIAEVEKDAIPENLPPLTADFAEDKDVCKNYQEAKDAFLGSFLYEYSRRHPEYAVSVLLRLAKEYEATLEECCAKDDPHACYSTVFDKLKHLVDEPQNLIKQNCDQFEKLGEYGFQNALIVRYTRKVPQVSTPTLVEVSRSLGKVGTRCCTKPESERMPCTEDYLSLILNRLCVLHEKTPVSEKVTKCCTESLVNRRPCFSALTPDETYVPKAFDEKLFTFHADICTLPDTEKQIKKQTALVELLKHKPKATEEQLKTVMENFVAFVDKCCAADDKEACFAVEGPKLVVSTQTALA
Sequence of UniProt P11388 (whole entry, looked up): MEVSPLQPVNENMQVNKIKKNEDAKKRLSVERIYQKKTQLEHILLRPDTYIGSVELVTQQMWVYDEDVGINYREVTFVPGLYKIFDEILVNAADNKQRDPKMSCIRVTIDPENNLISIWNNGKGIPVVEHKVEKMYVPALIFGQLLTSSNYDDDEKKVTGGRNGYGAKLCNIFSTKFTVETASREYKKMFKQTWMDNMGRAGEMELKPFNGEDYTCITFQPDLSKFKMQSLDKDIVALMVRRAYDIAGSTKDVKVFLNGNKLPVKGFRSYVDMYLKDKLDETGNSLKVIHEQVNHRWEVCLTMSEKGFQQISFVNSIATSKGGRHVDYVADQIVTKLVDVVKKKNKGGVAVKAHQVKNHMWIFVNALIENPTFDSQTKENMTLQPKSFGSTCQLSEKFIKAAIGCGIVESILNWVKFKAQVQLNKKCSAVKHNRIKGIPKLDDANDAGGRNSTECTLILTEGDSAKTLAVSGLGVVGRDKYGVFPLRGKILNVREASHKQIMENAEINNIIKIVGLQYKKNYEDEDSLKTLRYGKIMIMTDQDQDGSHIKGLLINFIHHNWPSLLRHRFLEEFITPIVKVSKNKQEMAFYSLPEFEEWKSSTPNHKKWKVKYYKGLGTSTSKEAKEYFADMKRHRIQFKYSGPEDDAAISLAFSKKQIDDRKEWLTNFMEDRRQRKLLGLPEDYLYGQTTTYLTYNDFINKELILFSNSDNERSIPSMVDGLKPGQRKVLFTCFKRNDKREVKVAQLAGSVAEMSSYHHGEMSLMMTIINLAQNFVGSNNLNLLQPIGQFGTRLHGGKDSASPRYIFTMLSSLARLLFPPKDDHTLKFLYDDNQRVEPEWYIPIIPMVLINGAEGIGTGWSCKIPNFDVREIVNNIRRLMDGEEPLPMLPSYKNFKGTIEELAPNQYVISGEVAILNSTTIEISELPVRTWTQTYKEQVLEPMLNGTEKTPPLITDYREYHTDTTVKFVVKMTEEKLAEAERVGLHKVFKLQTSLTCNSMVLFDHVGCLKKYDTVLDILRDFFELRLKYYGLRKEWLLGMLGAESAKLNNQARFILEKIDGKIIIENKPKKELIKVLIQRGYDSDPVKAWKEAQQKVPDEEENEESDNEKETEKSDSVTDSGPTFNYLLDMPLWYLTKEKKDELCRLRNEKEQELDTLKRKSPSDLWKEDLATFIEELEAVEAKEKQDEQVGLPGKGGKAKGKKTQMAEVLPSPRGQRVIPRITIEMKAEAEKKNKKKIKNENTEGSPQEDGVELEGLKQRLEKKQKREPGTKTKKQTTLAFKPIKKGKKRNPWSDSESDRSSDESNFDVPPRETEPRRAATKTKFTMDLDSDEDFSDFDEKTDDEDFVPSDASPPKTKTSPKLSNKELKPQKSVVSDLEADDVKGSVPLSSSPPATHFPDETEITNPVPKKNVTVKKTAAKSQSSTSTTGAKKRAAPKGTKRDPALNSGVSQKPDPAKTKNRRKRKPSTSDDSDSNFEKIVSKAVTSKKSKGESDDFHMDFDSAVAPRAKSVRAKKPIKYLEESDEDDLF
Sequence of UniProt Q9Y3R4 (whole entry, looked up): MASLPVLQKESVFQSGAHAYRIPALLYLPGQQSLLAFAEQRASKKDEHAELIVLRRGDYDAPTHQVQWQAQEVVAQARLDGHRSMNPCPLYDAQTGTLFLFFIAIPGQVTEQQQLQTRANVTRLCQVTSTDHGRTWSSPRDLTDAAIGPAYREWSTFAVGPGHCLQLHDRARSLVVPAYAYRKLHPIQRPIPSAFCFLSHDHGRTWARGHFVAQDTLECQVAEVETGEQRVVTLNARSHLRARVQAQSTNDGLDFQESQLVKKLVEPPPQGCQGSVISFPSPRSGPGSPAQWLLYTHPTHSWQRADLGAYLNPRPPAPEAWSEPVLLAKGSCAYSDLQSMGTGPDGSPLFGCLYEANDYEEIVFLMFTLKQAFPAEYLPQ
Sequence of UniProt P63079 (whole entry, looked up): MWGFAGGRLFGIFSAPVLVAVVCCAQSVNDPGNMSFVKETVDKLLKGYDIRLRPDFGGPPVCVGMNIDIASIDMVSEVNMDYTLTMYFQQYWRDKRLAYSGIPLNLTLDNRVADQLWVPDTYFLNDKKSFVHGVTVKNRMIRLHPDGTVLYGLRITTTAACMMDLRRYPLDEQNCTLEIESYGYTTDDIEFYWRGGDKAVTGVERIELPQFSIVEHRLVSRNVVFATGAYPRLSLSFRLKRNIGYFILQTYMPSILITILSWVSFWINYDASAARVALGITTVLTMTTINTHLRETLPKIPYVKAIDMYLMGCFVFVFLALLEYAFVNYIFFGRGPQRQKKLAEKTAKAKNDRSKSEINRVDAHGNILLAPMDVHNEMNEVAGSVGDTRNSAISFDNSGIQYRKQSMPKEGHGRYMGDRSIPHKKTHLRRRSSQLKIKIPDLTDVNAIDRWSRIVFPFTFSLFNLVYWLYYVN
Sequence of UniProt Q96D96 (whole entry, unmodified, looked up): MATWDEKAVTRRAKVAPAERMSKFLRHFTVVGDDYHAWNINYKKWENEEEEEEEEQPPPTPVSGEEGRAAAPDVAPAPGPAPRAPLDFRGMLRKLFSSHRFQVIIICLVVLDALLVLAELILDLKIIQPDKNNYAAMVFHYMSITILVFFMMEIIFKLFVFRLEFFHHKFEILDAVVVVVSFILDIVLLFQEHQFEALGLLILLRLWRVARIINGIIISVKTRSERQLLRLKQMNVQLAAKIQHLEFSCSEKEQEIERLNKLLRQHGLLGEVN
Sequence of UniProt P03146 (whole entry, looked up): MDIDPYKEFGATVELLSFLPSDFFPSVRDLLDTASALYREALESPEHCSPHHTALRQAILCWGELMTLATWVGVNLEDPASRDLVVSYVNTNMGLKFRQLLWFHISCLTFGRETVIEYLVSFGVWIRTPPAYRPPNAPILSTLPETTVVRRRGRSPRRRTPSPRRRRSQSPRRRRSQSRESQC
Sequence of UniProt Q8TBX8 (whole entry, looked up): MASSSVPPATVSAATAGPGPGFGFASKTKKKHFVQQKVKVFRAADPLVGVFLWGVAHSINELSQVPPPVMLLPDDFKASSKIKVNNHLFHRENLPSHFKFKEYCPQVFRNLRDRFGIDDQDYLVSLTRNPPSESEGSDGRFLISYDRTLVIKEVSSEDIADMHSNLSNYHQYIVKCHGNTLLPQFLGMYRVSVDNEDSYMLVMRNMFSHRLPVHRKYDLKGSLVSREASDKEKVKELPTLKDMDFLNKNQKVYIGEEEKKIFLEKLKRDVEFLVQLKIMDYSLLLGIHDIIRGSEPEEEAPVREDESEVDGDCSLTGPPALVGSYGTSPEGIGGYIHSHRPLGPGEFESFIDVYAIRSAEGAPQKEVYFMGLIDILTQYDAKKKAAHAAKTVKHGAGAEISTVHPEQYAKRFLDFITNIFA
Sequence of UniProt Q9BY41 (whole entry, looked up): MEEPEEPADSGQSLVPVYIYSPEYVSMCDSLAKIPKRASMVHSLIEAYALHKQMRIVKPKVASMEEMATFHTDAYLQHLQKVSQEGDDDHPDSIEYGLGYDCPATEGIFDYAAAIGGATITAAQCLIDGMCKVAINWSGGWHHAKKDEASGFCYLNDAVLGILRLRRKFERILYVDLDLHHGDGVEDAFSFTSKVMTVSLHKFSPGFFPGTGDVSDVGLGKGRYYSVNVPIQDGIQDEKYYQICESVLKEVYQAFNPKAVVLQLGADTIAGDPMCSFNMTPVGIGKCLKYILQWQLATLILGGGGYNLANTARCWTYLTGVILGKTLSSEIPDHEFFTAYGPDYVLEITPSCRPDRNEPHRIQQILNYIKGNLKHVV
Sequence of UniProt Q9HBW0 (whole entry, looked up): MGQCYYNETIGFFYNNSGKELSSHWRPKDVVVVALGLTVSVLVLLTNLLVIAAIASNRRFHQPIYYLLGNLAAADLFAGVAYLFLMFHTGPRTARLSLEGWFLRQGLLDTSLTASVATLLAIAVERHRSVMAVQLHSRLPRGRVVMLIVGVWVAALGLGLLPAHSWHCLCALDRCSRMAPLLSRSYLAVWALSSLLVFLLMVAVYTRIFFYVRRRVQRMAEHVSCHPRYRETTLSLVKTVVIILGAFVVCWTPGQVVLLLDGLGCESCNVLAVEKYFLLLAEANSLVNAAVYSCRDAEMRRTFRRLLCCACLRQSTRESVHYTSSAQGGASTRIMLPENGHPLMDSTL

Compound	target or system	assay	system	setting	how to read	quantity	result
O=S(=O)(O)C1CCNCC1	Sodium- and chloride-dependent taurine transporter (SLC6A6, Homo sapiens, UniProt P31641, Y138A)	binding, microscale thermophoresis	–	30.5 nM, room temperature, added: 50 nM labelled protein	higher = more binding	normalised MST signal	-0.0108
O=C(NCCN1CCCC1=O)c1ccc(C2CCCCC2)cc1	–	hepatocyte stability	cryopreserved rat hepatocytes	1 µM	–	hepatic clearance	46 mL/min/kg
CC[C@H](C)[C@@H]1NC(=O)[C@H](C)NC(=O)[C@H]([C@@H](C)CC)NC(=O)[C@H](CCC(N)=O)NC(=O)[C@H](C)NC(=O)[C@H](CCCNC(=N)N)NC(=O)[C@H](C(C)C)NC(=O)[C@H](CC(C)C)NC(=O)[C@H](CCC(=O)O)NC(=O)[C@H](CCCNC(=N)N)NC(=O)CNC(=O)[C@@H](NC(=O)[C@H](CC(C)C)NC(=O)[C@H](CCCCN)NC(=O)[C@@H](NC(=O)[C@@H](NC(=O)[C@H](CCC(=O)O)NC(=O)[C@H](CCC(=O)O)NC(=O)[C@H](CCSC)NC(=O)[C@H](Cc2c[nH]c3ccccc23)NC(=O)[C@H](CO)NC(=O)[C@@H](N)CC(=O)O)C(C)C)[C@@H](C)CC)CSSC[C@@H]2NC(=O)[C@@H](NC(=O)[C@H](CCCCN)NC(=O)[C@H](CC(N)=O)NC(=O)[C@H](C)NC(=O)[C@H](CC(C)C)NC(=O)[C@H](C)NC(=O)[C@H](CO)NC(=O)[C@H](Cc3ccc(O)cc3)NC(=O)[C@H](CC(C)C)NC(=O)[C@H](CCC(N)=O)NC(=O)c3ccc(-c4c5ccc(=[N+](C)C)cc-5oc5cc(N(C)C)ccc45)c(C(=O)[O-])c3)CSSC[C@H](NC(=O)CNC(=O)[C@H](C(C)C)NC(=O)[C@H](Cc3c[nH]cn3)NC2=O)C(=O)N[C@@H]([C@@H](C)O)C(=O)N[C@@H](CCCCN)C(=O)N[C@@H](CCCNC(=N)N)C(=O)N[C@@H](CO)C(=O)N[C@@H](CC(C)C)C(=O)N[C@@H](C)C(=O)N[C@@H](CCCNC(=N)N)C(=O)N[C@@H](Cc2ccccc2)C(=O)N[C@H](C(=O)O)CSSC[C@@H](C(=O)NCC(=O)N[C@@H](CCSC)C(=O)N[C@@H](CO)C(=O)N[C@H](C(=O)N[C@@H](Cc2c[nH]c3ccccc23)C(=O)N[C@@H](CO)C(=O)O)[C@@H](C)O)NC1=O	Relaxin receptor 1 (RXFP1, Homo sapiens, UniProt Q9HBX9)	binding, NanoBRET	–	added: relaxin 100 nM	–	dissociation plateau	26.9%
CC[C@@H](C)[C@@H](NC(=O)[C@@H](Cc1ccc(O)cc1)NC(=O)[C@H]1CCCN1C(=O)[C@@H](CCCNC(=N)N)NC(=O)[C@H](N)Cc1c[nH]cn1)C(=O)N[C@H](C)C(=O)N[C@H](Cc1c[nH]cn1)C(=O)N[C@H](CCCNC(=N)N)C(=O)N[C@@H](C(=O)N[C@H](Cc1ccc(O)cc1)C(=O)N[C@H](CO)C(=O)N[C@H](Cc1ccccc1)C(N)=O)C(C)C	Transferrin receptor protein 1 (Tfrc, Mus musculus, UniProt Q62351)	flow cytometry	RAW264.7	24 h, pH 6, replicate 1, unit not given	reference: 0 h	surface TFRC expression	0.978
CC[C@H](C)[C@H](NC(=O)[C@H](Cc1ccccc1)NC(=O)[C@H](CCC(=O)O)NC(=O)[C@H](CCCNC(=N)N)NC(=O)[C@H](C)NC(=O)[C@H](C)NC(=O)[C@H](CCC(N)=O)NC(=O)[C@H](CCC(=O)O)NC(=O)[C@H](CCC(=O)O)NC(=O)[C@H](CC(C)C)NC(=O)[C@H](Cc1ccc(O)cc1)NC(=O)[C@H](CO)NC(=O)[C@H](CO)NC(=O)[C@@H](NC(=O)[C@H](CC(=O)O)NC(=O)[C@H](CO)NC(=O)[C@@H](NC(=O)[C@H](Cc1ccccc1)NC(=O)[C@@H](NC(=O)CNC(=O)[C@H](CCC(=O)O)NC(=O)[C@H](C)NC(=O)CCc1cnc[nH]1)[C@@H](C)O)[C@@H](C)O)C(C)C)C(=O)N[C@@H](C)C(=O)N[C@@H](Cc1c[nH]c2ccccc12)C(=O)N[C@@H](CC(C)C)C(=O)N[C@H](C(=O)N[C@@H](CCCCNC(=O)COCCOCCNC(=O)COCCOCCNC(=O)CC[C@H](NC(=O)CCCCCCCCCCCCCCCCC(=O)O)C(=O)O)C(=O)NCC(=O)N[C@@H](CCCNC(=N)N)C(=O)N[C@@H](CCCCNc1c(NCCCCCN(O)C(=O)CCC(=O)NCCCCCN(O)C(=O)CCC(=O)NCCCCCN(O)C(C)=O)c(=O)c1=O)C(=O)NCC(=O)NCC(=O)N[C@@H](CO)C(=O)N[C@@H](CCCCNc1c(NCCCCCN(O)C(=O)CCC(=O)NCCCCCN(O)C(=O)CCC(=O)NCCCCCN(O)C(C)=O)c(=O)c1=O)C(=O)O)C(C)C	Glucagon-like peptide 1 receptor (GLP1R, Homo sapiens, UniProt P43220)	agonist, CRE luciferase reporter	BHK cells	Zr-loaded DFO conjugate, added: 0% HSA	reference: parent peptide	fold potency loss	3
Nc1ncnc2c1ncn2[C@@H]1O[C@H](COP(=O)(O)CP(=O)(O)OP(=O)(O)O)[C@@H](O)[C@H]1O	P2X purinoceptor 1 (P2RX1, Homo sapiens, UniProt P51575, E282A)	saturation binding	HEK293	52 nM	–	specific binding	1530 CCPM and 1310 CCPM
O=C(CO)NC1C(O)CC(OCC2OC(Oc3ccc([N+](=O)[O-])cc3)C(O)C(O)C2O)(C(=O)O)OC1C(O)C(O)CO (stereo not shown)	Sialidase-2 (Homo sapiens, UniProt Q9Y3R4)	substrate	–	10 min, pH 5.0, 37 °C	–	kcat	0.28 ± 0.01 s⁻¹
C[C@@H]1CCN(C(=O)CCl)[C@@H](C(N)=O)C1	human NEDD9 full length	LC-MS peptide mapping, refers to: Cys18	–	50 µM, 4 h	–	cysteine occupancy	28.9%
CN1CCN(c2cc(-c3ccncc3)c(-c3ccc4ccccc4c3)nn2)CC1	Lysophosphatidic acid receptor 2 (LPAR2, Homo sapiens, UniProt Q9HBW0)	agonist, FLIPR	–	12.5 µM	–	activation	-1.4%
N=C(N)Nc1nc2ccccc2[nH]1	Voltage-gated hydrogen channel 1 (HVCN1, Homo sapiens, UniProt Q96D96, F149A/F150A)	proton current, inhibitor, inside-out patch clamp	–	–	–	Hill coefficient	0.87 ± 0.09
Cc1ncsc1-c1ccc(CNC(=O)[C@@H]2C[C@@H](O)CN2C(=O)[C@@H](NC(=O)C2(F)CC2)C(C)(C)C)c(OCCOc2ccc(CN3CCN(c4cc(-c5ccccc5O)nnc4N)CC3)cc2)c1	SWI/SNF-related matrix-associated actin-dependent regulator of chromatin subfamily A member 4 (SMARCA4, Homo sapiens, UniProt P51532)	ternary complex binding, AlphaLISA competition	HEK293 cell lysate	added: full-length VCB	reference: binary IC50 over ternary IC50	cooperativity factor alpha	0.9
c1coc(-c2n[nH]cc2-c2ccnc3ccccc23)c1	Serine/threonine-protein kinase SSN3 (SSN3, Candida albicans, UniProt Q5AHK2)	kinase binding, MIB/MS competition	Candida albicans lysate	10 µM	reference: DMSO, negative = stronger binding	log2 fold change	-0.24
NC1CCN(S(=O)(=O)c2cc(C(=O)Nc3cc(F)c(F)c(F)c3)ccc2F)CC1	Capsid protein (C, Hepatitis B virus genotype D subtype ayw, UniProt P03146)	surface plasmon resonance	–	25 °C	–	koff	0.0474 s⁻¹
NCC[C@H](O)C(=O)N[C@@H]1C[C@H](N)[C@@H](O[C@H]2O[C@H](CN)[C@@H](O)[C@H](O)[C@H]2O)[C@H](O)[C@H]1O[C@H]1O[C@H](CO)[C@@H](O)[C@H](N)[C@H]1O	Albumin (ALB, Bos taurus, UniProt P02769)	binding, van't Hoff plot, fluorescence quenching	–	pH 7.4, 283–310 K	–	ΔS°	-1050 J/mol/K
CC(NC(=O)CCCc1ccc2ccc3cccc4ccc1c2c34)C(=O)NO (stereo not shown)	Histone deacetylase 8 (HDAC8, Homo sapiens, UniProt Q9BY41)	ITC	Tris-HCl buffer	concentration not given, 283 K	–	binding stoichiometry	0.85
COc1cccc(-n2nc3c4cc(Cl)ccc4[nH]cc-3c2=O)c1	Gamma-aminobutyric acid receptor subunit alpha-6/beta-3, with delta subunit (Gabra6/Gabrb3, Rattus norvegicus, UniProt P30191+P63079)	ion current, modulator, two-electrode voltage clamp	–	30 µM, α6β3δ receptor, added: GABA EC3-10	–	efficacy	180 ± 8.7%
O=c1nc(SCc2cc(F)cc(C(F)(F)F)c2)nc(SCc2ccc3sccc3c2)[nH]1	DNA topoisomerase 2-alpha (TOP2A, Homo sapiens, UniProt P11388)	DNA relaxation	–	31.25 µM	–	mean relaxed DNA	3.1%
Nc1ncc2c(n1)-c1c([nH]c3ccc(C#CC4CC4)cc13)CCCC2	Phosphatidylinositol 5-phosphate 4-kinase type-2 gamma (PIP4K2C, Homo sapiens, UniProt Q8TBX8)	DiscoverX scanMAX	–	1 µM	reference: control	remaining binding	81%
COc1cc(-c2cc(C(C)=O)n3ccccc23)c(OC)cc1Cn1ccnc1	Transcription intermediary factor 1-alpha (TRIM24, Homo sapiens, UniProt O15164)	–	–	–	–	ΔTm	0.1 °C
O=C(O)c1ccc(Nc2ncc3c(n2)-c2ccc(Cl)cc2C(c2c(F)cccc2F)=NC3)cc1	human Syk(h)	kinase activity	–	1 µM	–	remaining activity	99%
O=C(Nc1ccc(C2CCCCC2)cc1)c1cn[nH]c1	–	–	rat liver microsomes	1 µM	–	hepatic clearance	39 mL/min/kg
CC[C@@H]1[C@H](F)C(=O)N[C@@H]1COc1nccc2cc(C(N)=O)c(OC)cc12	Calcium/calmodulin-dependent protein kinase type 1 (CAMK1, Homo sapiens, UniProt Q14012)	ATP probe binding, KiNativ profiling, refers to: Lys1 probe site	THP-1 cell lysate	0.2 mM	–	inhibition	1.9%

Excerpt of the above:
Compound	target or system	assay	system	setting	how to read	quantity	result
COc1cc(-c2cc(C(C)=O)n3ccccc23)c(OC)cc1Cn1ccnc1	Transcription intermediary factor 1-alpha (TRIM24, Homo sapiens, UniProt O15164)	–	–	–	–	ΔTm	0.1 °C
